# Measured values from different studies.
# Numbered parts are unrelated; each lists some results of a single study. Changes are numbered by the printed parent chain.

# Sample 1
# Target: RNA binding protein fox-1 homolog 2, RRM domain, GST-SBP tag (RBFOX2, Homo sapiens, UniProt O43251-10, residues 100-194)
# Technique: RNA Bind-n-Seq
# Molecule type: RNA
# Matrix: in vitro
# Concentration: 365 nM
# Setting: natural RNA segment, single round, ends assumed
# Baseline: no-protein control
# Reading: higher = stronger binding
# All sequences stand within: GGGAGUUCUACAGUCCGACGAUC … UGGAAUUCUCGGGUGCCAA
# Target sequence (chain): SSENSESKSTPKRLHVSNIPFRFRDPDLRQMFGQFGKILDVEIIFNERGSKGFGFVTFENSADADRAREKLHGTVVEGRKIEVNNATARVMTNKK
Sequence,RBNS enrichment (R)
AGUGGGCUGGGGCCUUGAGGUGACUCUGUGUCUCCCCCCAAAGCCACAGGGCAGGGAAGGGGGUGGCUGGGCCUCCUGGCUGGCAAAGGGCUCUACUUAAAGCACAUGAU,0.348
GUUGUAGCUGUCAACCCAUUGGUUGUCUUUAGAGAGUUAAUGUUGAAACAAGGAACUCUUGGUCAGACAAACGUGAUCAGCUGAAACACGUGUGCUUUUGUAGAGUUUAA,0.437
UACUGAAGUCUCUGCUUUCUGUCAGAAUCAACCACCGACCUUGUGCUGCAUUGGAGAUCACAUCCUUUCCCUGUGUUGCCCCCAUUUCUCUGCUGCUUCUCUGGCUUGUU,0.404
UUCACCCAGUAUCACAAAGAUGACUUUGUGGGAGGUACUUAGAAUGGGCUAAGGUGGACAGGCUGUGUAAGUUUUAUCAGCUAGCAGACUGAGUGUGGGCUGGAAUUGUU,0.523
AGCCCAGUCUUCCUUAGUCUCUGGACCUAGAAGGGACCAUUGGAGAAGCAGGCUCUGCUUCUCUGUUGUUCCUGGUGGCUGGGCCUUAGCAGGGGUCUUUGCUCUUGAAG,0.246
AAAGACUAUUAAUCCCUCCAGCCUGAUGACCAGUUCUCAGCUGUGGUGUGGCAGCUGAGGAAUUGGGUUUCGGGGAGAGUGACUUUUUAAAAAGGACUUAAUUUCUACUA,0.674
AAACUAUCUUGAAUUUGCAAAUAUAGUGUUAUAUUUUAUAAAGUUUUGUAAAAUCCCAAACAAUAUUUCUAUUUUUGUAAAACAAUUGUAUGUAUAAUCUGUAUUUGAAA,0.681
AAAAAAAAGAAACUGGGGUAGGUUGUAGGAGGGGGGCCCAGAAAGACACCCCUGUACCUCUUCUCCAGGCCCAGCCUGCCACUGGGGAUGGGAAGAGGGGUUCUGGACUG,0.614
CUUGUGUUUUUCAGUGUGUGCCUCCCCGAGCCUCAGCCCCAAGCUGAUUUCUUAUCUGGAAAUGGUACACUGAAUUCUCUGGGUGGCUUUCUUGUGGCCCCAUGGGAUGC,0.4
CCAUUGAGAUCUUCCUGCUGAGUCCUUUCCAGGGGCCAAUUUUGGAUGAGCAUGGAGCUGUCACCUCUCAGCUGCUGGAUGACUUGAGAUGAAAAAGGAGAGACAUGGAA,5.96
AGCCGGGCCCCCUGUGCCUCUAGUAUACUUGUAUUGACUCUCAUAGUUACCCUUUUAGUUUUACUGUGUUCUGUGAAAAUUUGUAAUUGGUUGAGAAUCACUGUGGGCGU,0.479
AUCAGCCAUCUUUGCAUAUCCCUUUCACAUCUACCUUCACACAGGAAAGCUGAAUGCAUUUUACCAGUGAGGCUCUAGAUAUGAAACUUAGGGAUCCAUAGAUAAAUAAG,0.484

# Sample 2
# Target: CCNB3, cyclin fold, Cln2 fusion (human)
# Technique: yeast growth competition, sequencing
# Matrix: yeast
# Setting: weak parent motif
# Baseline: not given
# Reading: higher = stronger binding
# Starting sequence: MASTL docking peptide (human); PMIAKNLMCELDE
Variant,normalised enrichment score
D12Y,-0.438
E10S,-0.314
D12P,-0.25
I3P,-0.195
K5M,0.0375
A4E,-0.248
C9Y,-0.325
M8R,-0.105
E10L,0.434
K5P,0.0796
I3F,-0.0675
E10M,0.098
M8T,-0.333
K5G,-0.157
A4T,0.0128
K5Y,-0.0653
I3L,-0.211
I3A,-0.0163
N6Q,0.0437
N6V,-0.00273
M8W,0.201
M2Y,0.377
M2S,0.259
C9G,-0.0179
E10P,0.00344

# Sample 3
# Target: ABI1, truncated, D143A, DHFR fusion (Arabidopsis thaliana)
# Technique: DHFR PCA, deep sequencing
# Matrix: yeast
# Setting: methotrexate growth selection, single substitutions
# With: (+)-ABA 0.39 µM
# Baseline: wild-type fitted maximum
# Reading: higher = stronger binding
# Starting sequence: PYL1, truncated, DHFR fusion (Arabidopsis thaliana); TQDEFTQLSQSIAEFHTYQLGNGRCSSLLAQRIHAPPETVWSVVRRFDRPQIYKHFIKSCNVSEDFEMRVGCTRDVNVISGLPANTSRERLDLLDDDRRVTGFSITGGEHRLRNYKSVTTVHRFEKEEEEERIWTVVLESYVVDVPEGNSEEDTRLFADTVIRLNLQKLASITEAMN; partner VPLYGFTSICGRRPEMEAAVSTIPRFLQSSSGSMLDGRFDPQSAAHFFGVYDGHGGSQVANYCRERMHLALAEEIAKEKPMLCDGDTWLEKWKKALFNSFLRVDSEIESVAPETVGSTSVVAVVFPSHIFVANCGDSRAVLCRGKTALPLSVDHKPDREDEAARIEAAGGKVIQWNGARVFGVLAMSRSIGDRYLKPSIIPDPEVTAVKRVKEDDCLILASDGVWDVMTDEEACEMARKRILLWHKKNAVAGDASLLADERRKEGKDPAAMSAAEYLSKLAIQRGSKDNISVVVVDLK
Variant,relative binding score [%]
R49H,24.8
N177K,35.7
P146V,19.3
Q167D,-1.03
T39G,0.436
E89T,-3.78
S42I,-1.86
W41Y,6.34
L166T,4.74
L82M,42.3
E64I,8.53
A35D,-14
S26F,1.59
M176H,17.3
A30E,6.69
T1Y,43.2

# Sample 4
# Target: PABPC1L2, full length, GST fusion (mouse, UniProt A0ABA7IW68)
# Technique: RNAcompete
# Molecule type: RNA
# Matrix: in vitro
# Concentration: 20 nM
# Setting: 7-mer, probes averaged, single round
# Baseline: mean of 7-mers
# Reading: higher = stronger binding
# Residues (chain): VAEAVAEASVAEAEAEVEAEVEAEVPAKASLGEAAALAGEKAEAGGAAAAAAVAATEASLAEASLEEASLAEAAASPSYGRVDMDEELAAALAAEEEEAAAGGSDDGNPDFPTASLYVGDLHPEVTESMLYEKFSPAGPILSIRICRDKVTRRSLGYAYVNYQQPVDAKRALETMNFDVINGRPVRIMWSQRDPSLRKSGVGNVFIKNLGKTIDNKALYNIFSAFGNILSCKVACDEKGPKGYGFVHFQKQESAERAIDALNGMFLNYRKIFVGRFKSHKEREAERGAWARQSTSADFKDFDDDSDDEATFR
Sequence,7-mer Z-score
UCGAGCU,-0.246
GAUACGG,-0.00108
ACCAGGA,0.102
GGCAGUG,0.204
UGCCUUU,-0.135
UUCAAUA,0.000733
AGUGAGG,0.00254
UGAAGUG,-0.17
UCCGCUA,-0.211
CAACGCA,-0.2
CUCCUUA,-0.331
UUCGAAA,0.144
CCUGAGG,-0.19
UCGGCGU,-0.293
UAAUCGG,-0.0627
GGUUGGA,0.0623
CCGUGAA,0.0352
UUCAGAU,-0.112
AAACUCG,0.579
GACAGAA,0.329
UCUGGAU,-0.195
CUUGUUU,-0.412
GGAUUAA,0.144
AGAUAUG,-0.202
GCUCGCG,-0.222

# Sample 5
# Target: Centromere-binding protein 1, full length, His-tagged (CBF1, Saccharomyces cerevisiae, UniProt P17106, residues 1-351)
# UniProt P17106, sequence (whole entry, looked up): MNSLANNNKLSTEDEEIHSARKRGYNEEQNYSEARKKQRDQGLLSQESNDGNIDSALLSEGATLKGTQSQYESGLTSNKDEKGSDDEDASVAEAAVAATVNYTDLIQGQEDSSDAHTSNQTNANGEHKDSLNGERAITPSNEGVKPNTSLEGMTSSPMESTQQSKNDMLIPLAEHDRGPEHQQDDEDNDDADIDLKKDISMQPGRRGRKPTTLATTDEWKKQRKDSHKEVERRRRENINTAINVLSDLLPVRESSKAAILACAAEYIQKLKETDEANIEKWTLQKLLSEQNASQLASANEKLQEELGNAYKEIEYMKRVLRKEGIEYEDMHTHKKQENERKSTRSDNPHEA
# Technique: competition protein-binding microarray
# Molecule type: double-stranded DNA, one strand shown
# Matrix: in vitro
# Concentration: 2 µM
# Setting: whole 60-bp probe, lowest competitor level
# With: Pho4 competitor, 0.05 µM
# Reading: higher = stronger binding
# All sequences stand within: … GTCTTGATTCGCTTGACGCTGCTG
Sequence,fluorescence intensity
CTGGCCCACTTCATGGGCGTGCTAATCAAGAAGTAC,85.6 a.u.
TGCTTATGGAGGTCCCACGTGCTTTTATCCGACAGC,1030 a.u.
GGAAGAAGCATCTCACGCATGGAAAACAATTGACCT,75.7 a.u.
GAGGTTGGTACTATGAACGTGTTCCTGGTTTTCCTG,83.2 a.u.
CGTCCTAGCGATTGATATGTGGGTGCCATGAGGAAG,81.9 a.u.
AAATTACTAAGTTGTCACTTGACTTACCCCGTATGA,161 a.u.
CCTTCGTTGTTATCGTCCGTGTCGGTATCCACTTCC,60.4 a.u.
AATAATTTATTTTATCATGTGACGCCGATCCGGGTG,2090 a.u.
AAATTACTAAGTTGGTGCGTGGGTGACGCCGTATGA,68.9 a.u.
CCTTTACTTAATACACAGGGGCAAGCCAATGTTCAA,79.2 a.u.
CTTCTGTAAATTTGTCACAGCACTTGACGCGCCCCG,87.9 a.u.
CCTAACTTCTTTAGGGGCGTGGCAACTGTCGGGACT,64.3 a.u.
GTTACTATTCTTTGCATCGTGCATCGACTTACACCA,88.2 a.u.
GTCAACAACAACAACCTCGTGACAAATAGTTTGTAA,789 a.u.
GAATGCTTCTGTCTCTGCGTGCTTTTCAAAGGAGAA,80.1 a.u.
TAACGGCTATCCCATCACGTTCTCACCGAGGAGACC,255 a.u.
ACGTTTTGTCCAGATGTTCATCACCGAACAAACGTC,73.5 a.u.
GCACCAGGAAGTTGTCATGCTTGATGCTCGGCTCCC,72.2 a.u.
CTTTCCCGATCTTTTCACGTGACCTTAGCACATTTG,7560 a.u.

# Further values, each from its own experiment
Substance,target,assay,system,setting,how to read,endpoint,result
"PhoQ, residues 284 288 289 292 302 303 NLSRDF","PhoP, residues 12 14 15 18 19 NFCKL (Escherichia coli, UniProt P23836)","Sort-seq, refers to: YFP reporter",E. coli,"PhoQ-PhoP variant library, with: 10 µM Mg2+","baseline: high Mg2+ state, higher = stronger signaling",fold induction,3.73

# Excerpt of the above (sample 4):
Sequence,7-mer Z-score
GGUUGGA,0.0623
CCUGAGG,-0.19
UUCAGAU,-0.112
UGCCUUU,-0.135
UGAAGUG,-0.17
AGAUAUG,-0.202
UCCGCUA,-0.211
GACAGAA,0.329
UUCGAAA,0.144
CCGUGAA,0.0352
